Results of several laboratories.
A part holds a random share of what one study measured.

Series 1
Target: Sal-like protein 4, full length isoform B (SALL4, Homo sapiens, UniProt Q9UJQ4-2, residues 1-616)
Technique: universal PBM
Form: double-stranded DNA, one strand shown
Matrix: in vitro
Concentration: not given
Setting: 8-mer, flanks averaged, mean of replicates
Reading: higher = stronger binding
Quantity: E-score
GCATGCCA: -0.251
AGAGAACC: -0.256
CTTTTCAA: 0.253
ACGGCGAA: 0.0241
AGCCAAGA: 0.106
ATAGCCCA: 0.0702
GAATAATC: 0.224
AGCGCGTC: -0.212
CATGCACG: 0.0885

Series 2
Target: Histone acetyltransferase KAT6A, winged helix 1, GST fusion (KAT6A, Homo sapiens, UniProt Q92794, residues 1-85)
Technique: protein binding microarray
Form: double-stranded DNA, one strand shown
Matrix: in vitro
Concentration: not given
Setting: 8-mer, flanks averaged, mean of 2 arrays, mostly near background
Reference: not given
Reading: higher = stronger binding
Quantity: E-score
Target sequence (chain): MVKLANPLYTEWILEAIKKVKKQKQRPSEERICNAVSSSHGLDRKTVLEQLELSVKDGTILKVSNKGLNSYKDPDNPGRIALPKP
ACCTCTAG: -0.0512
CCCACGAG: -0.219
CAATCGTA: -0.125
CATCGCAA: -0.00749
AGCTAAGG: -0.146
CATAGATC: -0.131
CAGCAAGA: -0.185

Series 3
Target: Interferon regulatory factor 5, full length, phosphomimetic (IRF5, Homo sapiens, UniProt Q13568-2, residues 1-514, K96S/S451D/S453D/S456D/S462D)
Technique: protein-binding microarray
Form: double-stranded DNA, one strand shown
Matrix: in vitro
Concentration: 250 nM
Setting: 60-bp whole probe
With: salmon DNA 0.4 mg/ml
Reference: random background probes
Reading: higher = stronger binding
Quantity: log fluorescence
All sequences stand within: GCCTAGCAC … GTCTTGATTCGCTTGACGCTGCTG
GACGATTTCAGTATCGGGACGTGCTAG: 3.73 z-score
TTGGGTTTCGACACTGGGTTAGTGCTA: 4.75 z-score
TTAGGACTGGGACTCGGTTAGTGCTAG: -0.455 z-score
GACGATCTCGGTCTCGAGACGTGCTAG: 0.0192 z-score
TCATAGTTGTGTCTTGCACTGTGCTAG: 0.0652 z-score
TTAGATATCTGGACTGGATTAGTGCTA: 0.204 z-score
GACGGTATCCTCTTCCTGACGTGCTAG: -0.151 z-score
TTAGGTTTCGGTAACGGTTAGTGCTAG: 9.36 z-score
GACGGTTTCGACTTACGGGACGTGCTA: 6.22 z-score
GACGATATCAGTATAGAGACGTGCTAG: 1.52 z-score
TAAGATATCAGTATCGATTAGTGCTAG: 7.4 z-score
TTAGGACTGGGGGCTGGGTTAGTGCTA: 0.724 z-score
GACGGTTTCGACTATCGGCACGTGCTA: 7.1 z-score

Other studies, line by line
PhoQ, residues 284 288 289 292 302 303 ALAMYF
fold induction (PhoP, residues 12 14 15 18 19 VQALL (Escherichia coli, UniProt P23836); Sort-seq, refers to: YFP reporter; E. coli; PhoQ-PhoP variant library, with: 10 µM Mg2+; reference: high Mg2+ state, higher = stronger signaling): 8.29
